Results collected from several papers.
Parts stem from different laboratories: compare values within a part only.

Set 1 — method: RNA Bind-n-Seq; form: RNA; sample: in vitro; concentration: 365 nM; reference: no-protein control; reading: higher = stronger binding; measurement: RBNS enrichment (R)
Target: RNA binding protein fox-1 homolog 2, RRM domain, GST-SBP tag (RBFOX2, Homo sapiens, UniProt O43251-10, residues 100-194)
Setting: natural RNA segment, single round, ends assumed
All sequences stand within: GGGAGUUCUACAGUCCGACGAUC … UGGAAUUCUCGGGUGCCAA
Construct (chain): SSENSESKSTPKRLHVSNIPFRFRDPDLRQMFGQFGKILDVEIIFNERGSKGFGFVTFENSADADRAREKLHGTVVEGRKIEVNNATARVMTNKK
Oligonucleotide = CAUGGACAGUUAUGUAUAUCUACUUGUAUAGAGGGGGACAGUUUUCCACAUCGAUCCUUGCCCUCUUCAGGCAGUACUUCAGGGCCCUCACCAGGACCCCUUAUGUAGUG; result = 0.225
Oligonucleotide = UGGGAGGAAUCCCUGAAGACCUGCAUCCCCUAAGUGAGGACCCUACAGGGUACCUUGUGCUCUGCCCCCAGACCCAUAGCCUUAGCAGUGGGCCAACUACAAUCCUCAUC; result = 0.504
Oligonucleotide = UAUUCACAGACAAGAUUCAAGAAACCAUUUUUACGUGUGUACAUUCAAAUCUUCAUGAAUGGCAUCACUUGCUUUAGACCCAUUUUUUUUUUAUUGGUCAGAAAUAAAAU; result = 0.672
Oligonucleotide = CAAAGAAGCCACUGUUUGGGGAUGGCGCCCUGGAAAACAGCCUCCCACCUGGGAUAGCUAGAGCAUCCACACGUGGAAUUCUUUCUUUACUAACAAACGAUAGCUGAUUG; result = 0.866
Oligonucleotide = GUUUCUGCCUGCCUGAAAGAGAGGGCUCUGGGGAUGGAGAUGAGAAACAACACGCUCUCCUUCAGACAAUGAGGCAUUCUGUCCUCCUGCUGCCAUUCUUCAUCUCCACU; result = 0.631
Oligonucleotide = CCUUAAGCUGGAGAGAAAUCAGCAGGAGGACGACUGUGAGCGUACUGGAACUGGAGAAGAGGAGGCCCCGCCCCACCGCUCCGGGAGCUGCUCAUCAGCCGCAACUUCCU; result = 0.237
Oligonucleotide = AGAAACUUUGCCAACCUGUUAGUGUACACACACUGAGGGGAGUGCUCCCGGUGAAUAUUAUCAUAGGGCUUUAUUAUAUUCUUGGUCUUCAUUUCUGAUCAAGUAAAUAC; result = 0.305
Oligonucleotide = CUCUGAACGGUCGCCACCUCAGGGCAUUUUCCUGAGGCUCUGCUGCAAAAAAAAAAAAAAAAAUGAACACCGUGGACAACCCAGCCAGGCAGAGAGGCAGGCUGCCAGGC; result = 0.628

Set 2 — method: protein-binding microarray; form: double-stranded DNA, one strand shown; sample: in vitro; concentration: 940 nM top; setting: 60-bp whole probe; added: salmon DNA 0.4 mg/ml; reference: random background probes; reading: higher = stronger binding; measurement: fitted relative affinity; all sequences stand within: GCCTAGCAC … GTCTTGATTCGCTTGACGCTGCTG
Target: Interferon regulatory factor 5, full length, phosphomimetic (IRF5, Homo sapiens, UniProt Q13568-2, residues 1-514, S451D/S453D/S456D/S462D)
Oligonucleotide = GACGGTATCCTTCTCCTGACGTGCTAG; result = 0.781 z-score
Oligonucleotide = GACGAACTGACTCTCGAGACGTGCTAG; result = 0.833 z-score
Oligonucleotide = TCACCTTTCTCCATGGGACTGTGCTAG; result = 0.774 z-score
Oligonucleotide = GACGGACAGGACACTGGGGACGTGCTA; result = -0.406 z-score
Oligonucleotide = TTAGGTATCGGTATCGGTTGGTGCTAG; result = 10.6 z-score
Oligonucleotide = TAGACTCTGTGCTTTCCTCGTGTGCTA; result = -0.0681 z-score
Oligonucleotide = GACGGTAGCGGGTATCGGGACGTGCTA; result = 1 z-score
Oligonucleotide = TTAGGTCCCGGTCTCGGTTAGTGCTAG; result = 2.28 z-score
Oligonucleotide = TTAGGCCTGGACTTTCGGTTAGTGCTA; result = 2.16 z-score
Oligonucleotide = GACGGTCTCCTACTGCTGTCGTGCTAG; result = 0.4 z-score
Oligonucleotide = GACGGTTTCGGGCTCGGGACGTGCTAG; result = 7.66 z-score
Oligonucleotide = AGATTTTTTTTCCTAATTGAGTGCTAG; result = 1.11 z-score
Oligonucleotide = TCAACTTCTCTTTTGGCACTGTGCTAG; result = 0.63 z-score
Oligonucleotide = TTAGGACTGGTCACTGGGTTAGTGCTA; result = -0.658 z-score
Oligonucleotide = TCAGGTTTTTTTTTAATACTGTGCTAG; result = 0.536 z-score
Oligonucleotide = TTAGGTTTTCTTATCCTTTAGTGCTAG; result = 1.06 z-score
Oligonucleotide = TCAAGTTTACCCATCTCACTGTGCTAG; result = 0.559 z-score
Oligonucleotide = TTAGGTTTCGGATCCGGTTAGTGCTAG; result = 9.07 z-score
Oligonucleotide = TTAGAACTGAGTACCGATTAGTGCTAG; result = -0.026 z-score

Set 3 — method: RNA Bind-n-Seq; form: RNA; sample: in vitro; concentration: 100 nM; reference: input RNA pool; reading: higher = stronger binding; measurement: bound/input enrichment
Target: RING finger protein unkempt homolog, zinc fingers 1-6, SBP tag (UNK, Homo sapiens, UniProt Q9C0B0, residues 30-357)
Chain of UniProt Q9C0B0 (30-357, looked up): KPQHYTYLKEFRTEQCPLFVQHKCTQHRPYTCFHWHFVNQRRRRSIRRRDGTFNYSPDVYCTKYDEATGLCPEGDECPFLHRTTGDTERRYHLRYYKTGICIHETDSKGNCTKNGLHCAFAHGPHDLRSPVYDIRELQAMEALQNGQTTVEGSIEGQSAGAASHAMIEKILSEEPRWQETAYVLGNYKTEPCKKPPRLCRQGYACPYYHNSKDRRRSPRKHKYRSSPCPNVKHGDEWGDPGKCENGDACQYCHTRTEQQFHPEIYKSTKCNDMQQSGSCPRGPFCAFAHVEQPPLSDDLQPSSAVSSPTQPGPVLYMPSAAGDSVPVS
Setting: RNA with constant flanks, vertebrate orthologous sites, ends assumed
All sequences stand within: GGGAGUUCUACAGUCCGACGAUC … CAACAGAGGAUUGAGCAUCA
Oligonucleotide = AGCAACCCAAGGAUUCAGGACUGGUUUUACAAAUAUCCCGAGUAGAUAUGGAACUAACAAUAGAAUUGGACAACCAAGACCAUGAUGUACUAUAAUUUAAUUUAUUUUUAUGAGGAAUAU; result = 0.797 ratio
Oligonucleotide = AGUAUCUCAGUUGUACCGUGUUGGGUUGGCAUUGUACAGAAAUUAACAGCCAUAUUGGUCUAGAAACGUUAAACAUAAUUUUUUCCAUUUGUACAGGGGUAACGCACUGUAUUAAAUAUG; result = 1.3 ratio
Oligonucleotide = ACAGCUGCAGCACAGGCUGUUUGAGCUUUGGGAAAAUGAGCUUUGCUUUUUAUAUUUAAAUAGGAUACUUUUAUAUGAUGGGUGCUUUGAGUGUGAAUGCAGCAGGCUCUCCAUUUCAGA; result = 1.2 ratio
Oligonucleotide = AGAUCUACUUCAUGCCCUGGACGCCGUACCGCACGGACACCCUCAUCGAGUACUCCUCCCUGGACGACUUCCAGAACUCGCGGCAGACGGUCACCUACAAGCUGCCUCACCGCGUGGACG; result = 0.302 ratio
Oligonucleotide = GGCAACCGGUGGGGGGAAUCCUCUGCCUUGGCCUUGCCUCCCCUCUCUGCUACCUGCCUCUAGUUAUUUUUUUUUAACCAUCACGUGAUUAUGGUCGGCGCUGUCUCCCCCCGACCUGCU; result = 2.01 ratio
Oligonucleotide = GCAUGAGCAUCUGCAUUAGCUCUGAAGACUUCUGCCCUCGGCUCCUCAUACAUUUAAUCACAUUUACACACCAAUUUUAUAAAAAUAGCAGUGUAGAUUCCAAGGGACUCUGAGCCUCCA; result = 0.356 ratio
Oligonucleotide = AGGAAAUGCUGGCUGCAAACCCUCAGGAUCGCCCAGAUGCUUUUGAACUAGAACUCAGAUUAGUACAAAUUGCAUUUAAAGAUAGCAGCUGGGAAACGUGACACAUAUUAUUUGCAAAUA; result = 0.685 ratio
Oligonucleotide = CCGUUUGUAUGUACAUUAUUCACAUUCCUCUCUGUUGUGUUUGGAAAAAAACCAGACAUUUUAGCCUUUUUUAAGGUUAUUGAUUUAAUUUUAUUUGGUUGCAUGAAGUUGCCCUUAACC; result = 0.431 ratio

Set 4 — method: competition protein-binding microarray; form: double-stranded DNA, one strand shown; sample: in vitro; concentration: 2 µM; added: Pho4 competitor, 0.05 µM; reading: higher = stronger binding; measurement: fluorescence intensity; all sequences stand within: … GTCTTGATTCGCTTGACGCTGCTG
Target: Centromere-binding protein 1, full length, His-tagged (CBF1, Saccharomyces cerevisiae, UniProt P17106, residues 1-351)
Chain of UniProt P17106 (whole entry, looked up): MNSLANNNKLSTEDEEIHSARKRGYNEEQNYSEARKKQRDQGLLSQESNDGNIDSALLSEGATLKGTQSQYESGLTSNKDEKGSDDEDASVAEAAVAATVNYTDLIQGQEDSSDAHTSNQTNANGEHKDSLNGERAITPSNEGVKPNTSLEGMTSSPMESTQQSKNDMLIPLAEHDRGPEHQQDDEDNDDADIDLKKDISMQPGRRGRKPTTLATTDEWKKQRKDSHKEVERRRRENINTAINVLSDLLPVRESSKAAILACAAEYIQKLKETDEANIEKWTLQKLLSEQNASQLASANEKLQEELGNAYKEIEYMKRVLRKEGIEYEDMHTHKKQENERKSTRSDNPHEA
Setting: whole 60-bp probe, lowest competitor level
Oligonucleotide = GCGGTCCCTTCTTCGGGCGTGATGGGCCGCTTTGGC; result = 77 a.u.
Oligonucleotide = GTCTTGTCTCATTGCAGCGTGGGTGTCCCCACTTCA; result = 78.4 a.u.
Oligonucleotide = CCTTTCCAGATGGCTCACATGTCCGGTCGTCCTCCA; result = 138 a.u.
Oligonucleotide = GAACCGATGACGAGGCACATGGGGATAGAACCTCCG; result = 64.9 a.u.
Oligonucleotide = AAGCCCCAAAACGGCCACGTGATGGACTAGTTGCGC; result = 3020 a.u.
Oligonucleotide = ACCGCTGAAACCAAACATGTGATGAATTGGTCAACA; result = 630 a.u.
Oligonucleotide = CTTCTGTAAATTTGATTCGTGGGTGGACGCGCCCCG; result = 91 a.u.
Oligonucleotide = GGGCTAAAGAGCCGTCCCGTGATGGCCTGTAATGGC; result = 293 a.u.
Oligonucleotide = GCAAGGAAGATGAAACACGATGTCGTTGTGATGAGG; result = 107 a.u.
Oligonucleotide = AAAGCGGTAATTTGATAAGTGGGTGCAGATATCTAT; result = 89.6 a.u.
Oligonucleotide = CGTCCTAGCGATTGACAGGTGGGTGCCATGAGGAAG; result = 58.2 a.u.
Oligonucleotide = GCAACGCCCCCTTCCCACGTGGTCTTCTCCCTCTCC; result = 1140 a.u.
Oligonucleotide = CTTCTGTAAATTTGAACGGTGGGTGGACGCGCCCCG; result = 80.7 a.u.
Oligonucleotide = CTGTTTTAACATTGGCTCGTGACGGACTAGATCCTC; result = 343 a.u.
Oligonucleotide = CGTTGGTCTTTTTGGTGAAACGGAGTACTGGCTTGC; result = 62.2 a.u.
Oligonucleotide = CATACCCAACCTTGGCGGGTGGGTGAAGATATTTGT; result = 72 a.u.
Oligonucleotide = GTCCCACACTACTGGCACGTTTTCTTGATTTTTGTC; result = 194 a.u.
Oligonucleotide = AGGGTCTAGTCTATCAGCCTCCGAAGGAGTTGTATA; result = 45 a.u.
Oligonucleotide = CTACTGGAGATGCAGGTCGTGATGGACTTTTAGCTT; result = 76.7 a.u.

Repeated from above (set 2):
Oligonucleotide = GACGGTTTCGGGCTCGGGACGTGCTAG; result = 7.66 z-score
Oligonucleotide = AGATTTTTTTTCCTAATTGAGTGCTAG; result = 1.11 z-score
Oligonucleotide = TCAACTTCTCTTTTGGCACTGTGCTAG; result = 0.63 z-score
Oligonucleotide = TTAGGACTGGTCACTGGGTTAGTGCTA; result = -0.658 z-score
Oligonucleotide = TCAGGTTTTTTTTTAATACTGTGCTAG; result = 0.536 z-score
Oligonucleotide = TTAGGTTTTCTTATCCTTTAGTGCTAG; result = 1.06 z-score
